Values quoted from earlier work, collected from citations in different studies.
± marks the error that the study gave.
Chain of UniProt P50406 (whole entry, looked up): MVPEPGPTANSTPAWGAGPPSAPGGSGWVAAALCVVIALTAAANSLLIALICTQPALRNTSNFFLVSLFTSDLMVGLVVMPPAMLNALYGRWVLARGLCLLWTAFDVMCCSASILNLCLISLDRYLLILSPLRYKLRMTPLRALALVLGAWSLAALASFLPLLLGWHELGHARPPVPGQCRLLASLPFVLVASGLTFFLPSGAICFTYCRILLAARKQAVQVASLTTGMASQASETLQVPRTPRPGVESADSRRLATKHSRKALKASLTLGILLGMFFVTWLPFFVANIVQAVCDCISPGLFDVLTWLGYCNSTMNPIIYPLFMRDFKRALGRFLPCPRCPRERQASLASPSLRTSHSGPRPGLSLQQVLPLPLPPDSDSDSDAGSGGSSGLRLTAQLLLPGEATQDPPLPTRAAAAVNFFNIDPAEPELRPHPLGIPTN
Chain of UniProt Q9JI35 (whole entry, looked up): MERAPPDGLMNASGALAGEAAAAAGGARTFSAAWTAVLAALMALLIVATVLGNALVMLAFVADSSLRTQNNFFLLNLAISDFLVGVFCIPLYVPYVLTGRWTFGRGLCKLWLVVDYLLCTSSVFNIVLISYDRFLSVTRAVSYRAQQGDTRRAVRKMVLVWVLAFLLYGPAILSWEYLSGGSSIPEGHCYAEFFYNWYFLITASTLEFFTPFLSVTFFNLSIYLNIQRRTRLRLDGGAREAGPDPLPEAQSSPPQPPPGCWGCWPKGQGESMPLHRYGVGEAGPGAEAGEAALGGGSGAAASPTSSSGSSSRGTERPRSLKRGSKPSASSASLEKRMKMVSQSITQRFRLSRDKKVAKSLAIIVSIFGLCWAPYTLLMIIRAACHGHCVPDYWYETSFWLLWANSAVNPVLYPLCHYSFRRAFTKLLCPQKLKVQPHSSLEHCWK

SMILES | target | assay | test system | conditions | measurement | result
CNC(C)C(=O)c1ccc(Br)cc1 (stereo not shown) | SERT | uptake |  |  | IC50 | 1800 nM
CNC(C)C(=O)c1ccc2c(c1)OCO2 (stereo not shown) | norepinephrine transporter, rat | norepinephrine uptake, inhibitor | brain synaptosomes |  | IC50 | 1030 ± 162 nM
C=CCN(CC=C)CCc1c[nH]c2ccccc12 | HTR6 (Homo sapiens, UniProt P50406) | binding, [3H]LSD displacement |  |  | Ki | 1720 nM
CCCC(C(=O)c1ccc(O)c(O)c1)N1CCCC1 (stereo not shown) | dopamine transporter, rat | dopamine uptake, inhibitor | brain synaptosomes |  | IC50 | 11 ± 1 nM
c1ccc(C2(N3CCCCC3)CCCCC2)cc1 | muscle nicotinic acetylcholine receptor | inhibitor |  | holding potential -60 mV | IC50 | 20000 to 30000 nM
CCCC(C(=O)c1ccc2c(c1)OCO2)N1CCCC1 (stereo not shown) | human dopamine transporter | dopamine uptake, inhibitor | hDAT-expressing cells |  | IC50 | 135 nM
COC(=O)[C@H](c1ccc(F)cc1)[C@H]1CCCCN1 (racemic) | dopamine transporter, rat | dopamine uptake, inhibitor | rat brain synaptosomes | together with: [3H]dopamine | IC50 | 142 nM
C=CCN(CC=C)CCc1c[nH]c2ccc(OC)cc12 | Histamine H3 receptor (Cavia porcellus, UniProt Q9JI35) |  |  |  | Ki | 1710 nM
O=[P@]1(S)OC[C@H]2O[C@@H](n3cnc4cc(Cl)c(Cl)cc43)[C@H](O)[C@@H]2O1 | PDE5 | cyclic nucleotide hydrolysis, substrate or inhibitor, isothermal titration calorimetry |  |  | Km or Ki | 15100 nM
CCCC(C(=O)c1ccc2c(c1)OCO2)N1CCCC1 (stereo not shown) | serotonin transporter, rat | serotonin uptake, inhibitor | brain synaptosomes |  | IC50 | 3350 ± 305 nM
NC1Cc2cc3c(cc2C1)OCO3 | noradrenaline transporter | [3H]noradrenaline uptake | synaptosomes |  | IC50 | 1430 nM
CNC(C)C(=O)c1ccc(I)cc1 (stereo not shown) | SERT | uptake |  |  | IC50 | 1000 nM
CN1CC[C@]23c4c5ccc(O)c4O[C@H]2c2ncccc2C[C@@]3(O)[C@H]1C5 | mu opioid receptor guinea pig | muscle contraction, agonist | isolated guinea pig ileum |  | IC50 | 523 nM
